# Results of several laboratories.
# “And” joins repeats or separate records; there may be more than shown. ± marks the error that the study gave.
# Ugcg: Ceramide glucosyltransferase (Ugcg, Mus musculus, UniProt O88693)
# UniProt O88693, sequence (whole entry, looked up): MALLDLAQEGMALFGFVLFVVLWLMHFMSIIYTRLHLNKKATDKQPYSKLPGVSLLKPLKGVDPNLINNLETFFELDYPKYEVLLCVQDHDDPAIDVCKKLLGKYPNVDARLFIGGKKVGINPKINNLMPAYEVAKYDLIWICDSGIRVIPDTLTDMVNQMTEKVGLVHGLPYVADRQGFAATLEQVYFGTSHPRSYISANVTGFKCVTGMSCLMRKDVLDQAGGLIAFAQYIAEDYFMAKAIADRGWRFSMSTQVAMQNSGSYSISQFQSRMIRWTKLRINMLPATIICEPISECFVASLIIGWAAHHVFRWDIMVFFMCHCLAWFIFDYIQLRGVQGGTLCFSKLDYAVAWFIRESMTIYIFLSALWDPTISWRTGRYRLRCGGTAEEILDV
SMILES,tested on,test,test system,conditions,how to read,endpoint,result
COC1C=COC2(C)Oc3c(C)c(O)c4c(c3C2=O)C2=NC3(CCN(CC(C)C)CC3)NC2=C(NC(=O)C(C)=CC=CC(C)C(O)C(C)C(O)C(C)C(OC(=O)Nc2cnccn2)C1C)C4=O (stereo not drawn),,,"CD-1 mouse, plasma","oral, 12.5 mg/kg, efficacy dose",,AUC,107000 ng·h/mL
NS(=O)(=O)c1cccc(-c2ccc([C@H]3[C@@H](F)[C@@H](F)C[C@@H](F)[C@H]3F)cc2)c1,,liver microsome stability,mouse liver microsomes,1 µM,,hepatic clearance,15 mL/min/kg
C#CCOc1ccc(/C=C2\SC(=O)N(CC(=O)NCc3ccccc3)C2=O)cc1,,shake-flask HPLC,water,"40 h, 25 °C",,aqueous solubility,5.9 µg/mL
COc1cccc(OC)c1-c1cc(C(=O)NC2(C(=O)O)C3CC4CC(C3)CC2C4)nn1-c1ccc(C(=O)N(C)CCOCCN(C)C(=O)[C@H](CCCCNC(=O)[C@H](CC(C)C)NC(=O)C2OC2C(=O)O)NC(=O)CN2CCN(CC(=O)[O-])CCN(CC(=O)[O-])CCN(CC(=O)[O-])CC2)cc1C(C)C.[177Lu+3] (mixture of isomers),,,"mouse, HT-29 xenograft","168 h post injection, biodistribution",relative to: tumour over bone uptake,tumour-to-bone ratio,4.05
CN(C)C(=O)CNC(=O)c1ccc(C2CCCCC2)cc1,,hepatocyte stability,cryopreserved human hepatocytes,1 µM,,hepatic clearance,17 mL/min/kg
C=C(NC(=O)c1csc(-c2nc3c(cc2O)-c2nc(cs2)C(=O)NC(C(C)O)C(=O)NC(=C(C)OC)c2nc(cs2)C(=O)NC2c4nc(cs4)C(=O)NC(COC(=O)c4c5c6c(cccc6n4O)COC(=O)C(OC4CC(C)(O)C(N(C)C)C(C)O4)C2OC5)c2nc-3cs2)n1)C(N)=O (stereo not drawn),,,"female Sprague-Dawley rats, plasma","intravenous infusion, 6 mg/kg",,AUC(0-inf),2360 ng·h/mL
OC[C@@H]1[C@@H](O)[C@H](O)[C@@H](O)CN1CCCCCOCc1ccccc1,Ugcg,"enzyme activity, inhibitor, C6-NBD-ceramide in situ",RAW264.7,together with: C6-NBD-ceramide,,IC50,750 nM
Cn1ncc2cc(CN3CCC(F)(F)C(COc4ccc(C#N)c(F)c4)C3)ccc21 (stereo not drawn),,equilibrium dialysis,mouse plasma,,,fu,0.008
C=C1C[C@]2(C(=O)OC)C=C(C(=O)Nc3cccc(C(=O)Nc4ccc(Nc5nccc(-c6cccnc6)n5)c(C)c4)c3)C(=O)[C@H]1C2,,,"Wistar rat, male, plasma","10 µM, 5 min",,compound remaining,29.4% and 27.2%
O=C(Nc1cnccc1-c1ccc([18F])nc1)c1ccnc(NC(=O)C2CC2)c1,,,"FVB/NJ mouse, both sexes, brain","intravenous, 1 min post-injection, together with: P-gp inhibitor tariquidar 15 mg/kg iv",,SUV,0.36 ± 0.2
O=C(CN1CCOCC1)Nc1ccc([C@H]2[C@@H](F)[C@@H](F)C[C@@H](F)[C@H]2F)cc1,,liver microsome stability,mouse liver microsomes,1 µM,,hepatic clearance,30 mL/min/kg
C[n+]1ccc(/C=N/NC(=O)c2cncc(C(=O)N/N=C/c3cc[n+](C)c4ccccc34)n2)c2ccccc21,22CTA telomeric G4-DNA antiparallel,FRET melting,,"1 µM, K10 buffer, DNA 0.2 µM, together with: ds26 10 µM",,ΔTm,14.4 ± 0.1 °C
O=C(N1CCCCC1)C12CC(c3ccccc3)(C1)C2(F)F,,metabolic stability,"human, liver microsomes","2 µM, 40 min, pH 7.4",,compound remaining,73%
C=Cc1ccccc1[B-]12OC(=O)C(c3ccccc3)=N[N+]1=C(C)c1ccc(N(CC)CC)cc1O2 (stereo not drawn),,,toluene,,,fluorescence emission maximum,509 nm
O=C(Nc1ccc(C2CCCCC2)cc1)C1(N2CCOCC2)CC1,,liver microsome stability,dog liver microsomes,1 µM,,hepatic clearance,28 mL/min/kg
O=C(N/N=C/c1ccc2c(ccc[n+]2Cc2ccccc2)c1)c1ccc2ccc3ccc(C(=O)N/N=C/c4ccc5c(ccc[n+]5Cc5ccccc5)c4)nc3c2n1,22CTA telomeric G4-DNA antiparallel,FRET melting,,"1 µM, K10 buffer, DNA 0.2 µM",,ΔTm,22.7 ± 0.5 °C
C=CC(=O)Nc1cc(Nc2nccc(-c3c[nH]c4ccccc34)n2)c(OC)cc1N(C)CCN(C)C,,,human plasma,"5 h, storage stability, medium QC sample",,recovery,90.2%
COCC1CN(C2CCN(c3cc(OC)c(Nc4ncc(Br)c(Nc5ccc6c(c5P(C)(C)=O)OCCO6)n4)cc3C)CC2)C1,,,"EGFR-mutant NSCLC patients, plasma","oral, 240 mg single dose, geometric mean",,t1/2,33.7 h
[11CH3]N(Cc1ccc(/C=C/C(=O)NO)cc1)CC12CC3CC(CC(C3)C1)C2,,,"baboon, arterial plasma","intravenous, dose not given, over 30 min",,parent compound in plasma,40%
O=C(NC1CCOCC1)c1ccc([C@H]2[C@@H](F)[C@@H](F)C[C@@H](F)[C@H]2F)cc1,,hepatocyte stability,cryopreserved human hepatocytes,1 µM,,hepatic clearance,6.2 mL/min/kg
OC[C@@H]1[C@@H](O)[C@H](O)[C@@H](O)CN1CCCCCOCc1ccc(-c2ccc(F)cc2)cc1,Ugcg,"enzyme activity, inhibitor, fluorescence",,,,IC50,25 nM

# Excerpt of the above:
SMILES,tested on,test,test system,conditions,how to read,endpoint,result
C=Cc1ccccc1[B-]12OC(=O)C(c3ccccc3)=N[N+]1=C(C)c1ccc(N(CC)CC)cc1O2 (stereo not drawn),,,toluene,,,fluorescence emission maximum,509 nm
O=C(Nc1ccc(C2CCCCC2)cc1)C1(N2CCOCC2)CC1,,liver microsome stability,dog liver microsomes,1 µM,,hepatic clearance,28 mL/min/kg
